Results from different studies.
Compare with care: the assays were run in different laboratories. Values joined by “and” are separate records of one study, mostly repeats; a detail may differ.
EGFR L858R/T790M: Epidermal growth factor receptor (EGFR, Homo sapiens, UniProt P00533, L858R/T790M)
Oprk1: Kappa-type opioid receptor (Oprk1, Mus musculus, UniProt P33534)
PDE10A catalytic domain: cAMP and cAMP-inhibited cGMP 3',5'-cyclic phosphodiesterase 10A, catalytic domain (PDE10A, Homo sapiens, UniProt Q9Y233)

Compound	target	assay	system	setting	how to read	selectivity ratio
O=C(O[C@@H]1Cc2c(O)cc(O)cc2O[C@@H]1c1cc(O)c(O)c(O)c1)c1cc(O)c(O)c(O)c1	EGFR L858R/T790M	kinase activity			reference: EGFR T790M/L858R over wild-type EGFR	0.97
COC(=O)C=CCCC(NC(=O)c1ccncc1C(=O)O)C(=O)NC(C(=O)N1CC(=O)CC1C(=O)NC(C(=O)NC(C(N)=O)C1CCCCC1)C1CCCCC1)C(C)(C)C (centres unmarked)	Protein-glutamine gamma-glutamyltransferase 6 (Homo sapiens, UniProt O95932)	transamidation activity			reference: TG6 over FXIII-A2	1
CCCCCCCCCCOc1c(O)cc(C(=O)OC2Cc3c(O)cc(O)cc3OC2c2cc(O)c(O)c(O)c2)cc1O (centres unmarked)	EGFR L858R/T790M	kinase activity			reference: EGFR T790M/L858R over wild-type EGFR	1.62
CC(=O)OC1OCC2C=C(C3(C)CCCCC3)CCC21 (single isomer, unassigned; (-))	PPIF (Homo sapiens, UniProt P30405)	PPIase enzyme activity, inhibitor			reference: PPIF over cyclophilin A	~3 fold
CCc1c(Cl)cccc1N1CCN(C[C@@H](F)CCNC(=O)c2cc3ccccc3[nH]2)CC1	dopamine D3 and D2 receptors	binding			reference: Ki D2 over Ki D3	> 1000 fold and 1060 fold
C[C@H]1[C@H]2CCC[C@]1(c1cccc(O)c1)CCN2CCc1ccccc1	Oprk1	radioligand competition binding	CHO membranes	with: [3H]diprenorphine	reference: Ki KOR over Ki MOR	14.6 fold
C[n+]1ccc(C(=O)NC2CCC3(O)C4Cc5ccc(O)c6c5C3(CC[N+]4(C)CC3CC3)C2O6)cc1 (centres unmarked)	Oprk1				reference: Ki kappa over Ki mu	0.7
CNC(=O)C1OC(n2cnc3c(NCc4cccc(I)c4)ncnc32)C(O)C1O (centres unmarked)	SLC22A8 (Homo sapiens, UniProt Q8TCC7)	inhibitor			reference: OAT1 IC50 over OAT3 IC50	≥ 10 fold
Nc1nc(Cl)nc2c1ncn2Cc1cc(OCC(F)F)cc(OC(F)F)c1	PDE10A catalytic domain	enzyme activity, inhibitor			reference: PDE10A over PDE8A1	111 fold
Cc1ccc2c(n1)c(-c1cccc(S(C)(=O)=O)c1)c(C)n2C/C(F)=C/CN	LOXL1 (Homo sapiens, UniProt Q08397)	inhibitor, Amplex Red			reference: IC50 LOXL1 over IC50 LOXL2	> 80 fold
Cc1cc2c(cc1Cl)-c1c(c(C(=O)NN3CCCCC3)nn1-c1ccc(Cl)cc1Cl)C2	Cnr2 (Mus musculus, UniProt P47936)	radioligand displacement	mouse brain and spleen homogenates	with: [3H]CP-55,940	reference: Ki CB1 over Ki CB2	4.3
CC[C@@H]1NC(=O)[C@@H]2CSSC[C@@H]3NC(=O)[C@H](CCCCN)NC(=O)[C@@H]4CSSC[C@H](NC(=O)[C@H](CC(=O)O)NC(=O)[C@H](CCCCN)NC(=O)[C@@H]5CCCN5C(=O)[C@H]([C@@H](C)O)NC(=O)[C@H](CCCNC(=N)N)NC(=O)[C@@H](NC(=O)[C@H](CO)NC(=O)[C@H](C)N)CSSC[C@H](NC(=O)[C@H](CCCCN)NC(=O)CNC(=O)[C@H](Cc5ccc(O)cc5)NC(=O)[C@@H]5CCCN5C(=O)[C@H](CSSC[C@@H](C(N)=O)NC(=O)[C@H](CCCNC(=N)N)NC(=O)[C@H](CC(N)=O)NC3=O)NC(=O)CNC(=O)[C@H]([C@@H](C)O)NC(=O)[C@H](CCC(=O)O)NC(=O)[C@H](CCCCN)NC1=O)C(=O)N[C@@H](CCSC)C(=O)N[C@@H](CC(N)=O)C(=O)N[C@@H](CCCNC(=N)N)C(=O)N[C@@H](CCCCN)C(=O)N4)C(=O)N[C@@H](C)C(=O)N[C@@H](CC(=O)O)C(=O)N1CCC[C@H]1C(=O)N2	Kcna3 (Mus musculus, UniProt P16390)	potassium current, inhibitor, whole-cell patch clamp			reference: IC50 Kv1.1 over IC50 Kv1.3	> 2000 fold
C[C@H](NC(=O)[C@H](Cc1ccccc1)NC(=O)c1ccc(Br)cc1)C(=O)N[C@H](C(=O)N[C@@H](CCCC[N+](C)(C)C)C(=O)N[C@@H](CO)C(N)=O)C1CCCC1	Chromobox protein homolog 6 (Homo sapiens, UniProt O95503)	competitive fluorescence polarization			reference: Cbx7 over Chromobox protein homolog 6	9.1 fold
C=C(C)C1CCc2c(c(C)cc(O)c(=O)c2O)C1 (centres unmarked)	Ribonuclease H1 (Homo sapiens, UniProt O60930)				reference: HIV-1 RNase H over Ribonuclease H1	6 fold
C[C@H](CCC(=O)N[C@H](CC(c1c[nH]c2ccc(N=[N+]=[N-])cc12)c1c[nH]c2ccc(N=[N+]=[N-])cc12)C(=O)O)[C@H]1CC[C@H]2[C@@H]3CC[C@@H]4C[C@H](O)CC[C@]4(C)[C@H]3CC[C@]12C (some centres unmarked)	ST6GAL1 (Homo sapiens, UniProt P15907)				reference: ST3GAL1 IC50 over ST6GAL1 IC50	> 153
COCCCN1CCc2c(Cc3ccc(Cl)cc3)[nH]c3c(OC(F)F)ccc(c23)C1=O	PDE10A catalytic domain	enzyme activity			reference: IC50 PDE5A1 over PDE10A	176
CCC1(CC)C(=O)N(c2cccc(CN3CCc4cc5c(cc4C3)OCO5)c2)C1=O	Dipeptidyl peptidase 8 (Homo sapiens, UniProt Q6V1X1)				reference: Ki DPP9 over Ki target	4

Repeated from above:
Compound	target	assay	system	setting	how to read	selectivity ratio
C[C@H](NC(=O)[C@H](Cc1ccccc1)NC(=O)c1ccc(Br)cc1)C(=O)N[C@H](C(=O)N[C@@H](CCCC[N+](C)(C)C)C(=O)N[C@@H](CO)C(N)=O)C1CCCC1	Chromobox protein homolog 6 (Homo sapiens, UniProt O95503)	competitive fluorescence polarization			reference: Cbx7 over Chromobox protein homolog 6	9.1 fold
C=C(C)C1CCc2c(c(C)cc(O)c(=O)c2O)C1 (centres unmarked)	Ribonuclease H1 (Homo sapiens, UniProt O60930)				reference: HIV-1 RNase H over Ribonuclease H1	6 fold
